Published values from different studies.
Lines come from different studies, so protocols differ. ± gives the spread as reported.

Compound	assay	system	setting	tissue uptake [%ID/g]
CC(C)C[C@@H](NC(=O)[C@@H](CCCNC(=N)N)NC(=O)[C@@H](Cc1c[nH]cn1)NC(=O)[C@@H](Cc1c[nH]c2ccccc12)NC(=O)[C@@H](Cc1c[nH]cn1)NC(=O)[C@@H](Cc1ccccc1)NC(=O)[C@H](NC(=O)[C@@H](Cc1ccc(O)cc1)NC(=O)CNC(=O)CNC(=O)CCOCCOCCOCCNC(=O)CN1CCN(CC(=O)O)CCN(CC(=O)O)CC1)[C@H](C)O)C(=O)N[C@H](CC(N)=O)C(=O)N1CCC[C@@H]1C(=O)O [gallium-68 labelled]	gamma counting	C57BL/6 mice, male, tumor	intravenous, 1.85 MBq, 120 min	3.73 ± 0.36
CC[C@H](C)[C@H](NC(=O)[C@H](CCCNC(=N)N)NC(=O)[C@H](CCCCN)NC(=O)[C@H](Cc1ccc(O)cc1)NC(=O)[C@H](CC(=O)O)NC(=O)[C@H](C)NC(=O)CNC(=O)CCOCCOCCOCCNC(=O)CN1CCN(CC(=O)O)CCN(CC(=O)O)CCN(CC(=O)O)CC1)C(=O)N[C@H](C(=O)N[C@@H](CC(C)C)C(=O)N[C@@H](CCCCN)C(=O)N[C@H](C(=O)N[C@@H](CC(N)=O)C(N)=O)C(C)C)[C@@H](C)O [copper-64 labelled]	ex vivo gamma counting	C57BL/6J male mice, B16-F10 tumour, muscle	intravenous, 1.85 MBq, 40 min	0.455 ± 0.047
C[C@H](O)[C@@H](NC(=O)[C@H]1CCCN1C(=O)[C@@H](CCCCN)NC(=O)[C@@H](CO)NC(=O)[C@@H](Cc1ccc(O)cc1)NC(=O)[C@@H](CC(N)=O)NC(=O)CCOCCOCCOCCNC(=O)CN1CCN(CC(=O)O)CCN(CC(=O)O)CCN(CC(=O)O)CC1)C(=O)N[C@H](CC(=O)O)C(=O)N[C@H](CCCNC(=N)N)C(=O)N[C@H](CCC(N)=O)C(=O)N[C@H](Cc1ccc(O)cc1)C(=O)N[C@H](Cc1c[nH]cn1)C(=O)N[C@H](Cc1ccccc1)C(N)=O [gallium-68 labelled]		BALB/c nude mice U-87 MG tumour, spleen	intravenous, 1.85 MBq, 0.08333 h, radiolabelled	0.98 ± 0.14
CC[C@H](C)[C@H](NC(=O)[C@H](CCCNC(=N)N)NC(=O)[C@H](CCCCN)NC(=O)[C@H](Cc1ccc(O)cc1)NC(=O)[C@H](CC(=O)O)NC(=O)[C@H](C)NC(=O)CNC(=O)CCOCCOCCOCCNC(=O)CN1CCN(CC(=O)O)CCN(CC(=O)O)CCN(CC(=O)O)CC1)C(=O)N[C@H](C(=O)N[C@H](C(=O)N[C@@H](CCCCN)C(=O)N[C@H](C(=O)N[C@@H](CC(N)=O)C(N)=O)C(C)C)C(C)C)[C@@H](C)O [copper-64 labelled]	ex vivo gamma counting	C57BL/6J male mice, B16-F10 tumour, thymus	intravenous, 1.85 MBq, 20 min	1.16 ± 0.226
CCCC[C@H]1C(=O)N(C)[C@@H](CCCC)C(=O)N[C@@H](CCCNC(=O)CN2CCN(CC(=O)O)CCN(CC(=O)O)CCN(CC(=O)O)CC2)C(=O)N[C@H](C(=O)NCC(N)=O)CSCC(=O)N[C@@H](Cc2ccc(O)cc2)C(=O)N(C)[C@@H](C)C(=O)N[C@@H](CC(N)=O)C(=O)N2CCC[C@H]2C(=O)N[C@@H](Cc2c[nH]cn2)C(=O)N[C@@H](CC(C)C)C(=O)N(C)CC(=O)N[C@@H](Cc2c[nH]c3ccccc23)C(=O)N[C@@H](CO)C(=O)N[C@@H](Cc2c[nH]c3ccccc23)C(=O)N1C [gallium-68 labelled]		NOD/SCID mice with CHO-hPD-L1 xenograft, brain	30 min post injection	0.42 ± 0.05
CSCC[C@H](NC(=O)CNC(=O)[C@H](CCCCN)NC(=O)[C@H](CC(C)C)NC(=O)[C@@H]1CCCN1C(=O)[C@H](CO)NC(=O)[C@H](Cc1c[nH]cn1)NC(=O)[C@H](Cc1c[nH]c2ccccc12)NC(=O)[C@H](CCCNC(=N)N)NC(=O)[C@H](CC(C)C)NC(=O)[C@H](CCCNC(=N)N)NC(=O)[C@H](Cc1c[nH]c2ccccc12)NC(=O)[C@H](CS)NC(=O)CCCCCNC(=O)CN1CCN(CC(=O)O)CCN(CC(=O)O)CCN(CC(=O)O)CC1)C(=O)O [copper-64 labelled]	PET	C57BL/6J mice, B16-F10 tumour, kidney	intravenous, 3.5 h	12.1 ± 0.97
CC[C@H](C)[C@H](NC(=O)[C@@H](Cc1c[nH]c2ccccc12)NC(=O)[C@@H]1CCCN1C(=O)[C@H](CCCCN)NC(=O)[C@H](CCCCN)NC(=O)CCNC(=O)CCNC(=O)CN1CCN(CC(=O)O)CCN(CC(=O)O)CCN(CC(=O)O)CC1)C(=O)N[C@@H](C[Si](C)(C)C)C(=O)O [gallium-68 labelled]	ex vivo biodistribution	nude mice, HT-29 xenograft, prostate	90 min, with: levocabastine 0.5 µmol	2.5 ± 0.43
CC[C@H](C)[C@H](NC(=O)[C@H](CCCCN)NC(=O)CNC(=O)[C@H](CC(C)C)NC(=O)[C@H](Cc1ccccc1)NC(=O)[C@H](CCCCN)NC(=O)[C@H](CO)NC(=O)[C@H](Cc1ccccc1)NC(=O)[C@H](Cc1c[nH]c2ccccc12)NC(=O)[C@H](CCC(N)=O)NC(=O)[C@@H](NC(=O)[C@H](Cc1ccccc1)NC(=O)CCCCCNC(=O)CN1CCN(CC(=O)O)CCN(CC(=O)O)CCN(CC(=O)O)CC1)C(C)C)C(=O)N[C@@H](CCC(=O)O)C(=O)N1CCC[C@H]1C(=O)N[C@@H](CC(=O)O)C(=O)N[C@H](C(=O)N[C@@H](CO)C(=O)N[C@@H](CCC(N)=O)C(=O)N[C@H](C(=O)N[C@@H](CCC(N)=O)C(=O)N[C@@H](CC(=O)O)C(=O)N1CCC[C@H]1C(=O)N[C@@H](CC(N)=O)C(=O)N[C@@H](CC(=O)O)C(=O)N[C@@H](CCC(N)=O)C(=O)N[C@@H](Cc1ccc(O)cc1)C(=O)N[C@@H](CCC(=O)O)C(=O)N1CCC[C@H]1C(=O)N[C@@H](Cc1ccccc1)C(=O)O)C(C)C)C(C)C [copper-64 labelled]		GZMB-/- mice, CT26 tumour-bearing, spleen	2 h, vehicle-treated	0.68 ± 0.1

For quick reference, copied from above:
Compound	assay	system	setting	tissue uptake [%ID/g]
C[C@H](O)[C@@H](NC(=O)[C@H]1CCCN1C(=O)[C@@H](CCCCN)NC(=O)[C@@H](CO)NC(=O)[C@@H](Cc1ccc(O)cc1)NC(=O)[C@@H](CC(N)=O)NC(=O)CCOCCOCCOCCNC(=O)CN1CCN(CC(=O)O)CCN(CC(=O)O)CCN(CC(=O)O)CC1)C(=O)N[C@H](CC(=O)O)C(=O)N[C@H](CCCNC(=N)N)C(=O)N[C@H](CCC(N)=O)C(=O)N[C@H](Cc1ccc(O)cc1)C(=O)N[C@H](Cc1c[nH]cn1)C(=O)N[C@H](Cc1ccccc1)C(N)=O [gallium-68 labelled]		BALB/c nude mice U-87 MG tumour, spleen	intravenous, 1.85 MBq, 0.08333 h, radiolabelled	0.98 ± 0.14
